Measured values pooled from the literature.
Protocols differ between the studies behind these lines. ± gives the spread as reported. Values after ≈ are worked out from the molar mass of the structure shown.

SMILES	organism	assay	test system	conditions	scale	endpoint	value
CCCCCCCC(=O)N[C@@H](CCCCN)C(=O)N[C@H](C(=O)N[C@@H](C)C(=O)NCC(=O)N[C@@H](CCCCN)C(=O)N[C@H](C(=O)N[C@@H](C)C(=O)N[C@@H](CCCCN)C(=O)N[C@H](C(=O)N[C@@H](C)C(=O)NCC(=O)N[C@@H](CCCCN)C(=O)N[C@H](C(=O)N[C@@H](C)C(=O)N[C@@H](CCCCN)C(=O)N[C@H](C(=O)N[C@@H](C)C(=O)NCC(=O)N[C@@H](CCCCN)C(=O)N[C@H](C(=O)N[C@@H](C)C(N)=O)[C@@H](C)CC)[C@@H](C)CC)[C@@H](C)CC)[C@@H](C)CC)[C@@H](C)CC)[C@@H](C)CC	Staphylococcus aureus, Escherichia coli	–	–	–	relative to: S. aureus over E. coli	MIC ratio	4
CC1(C)NCCC[C@]2(C)[C@H]3CC=C4[C@@H]5C[C@@](C)(CO)CC[C@]5(C)CC[C@@]4(C)[C@]3(C)CC[C@@H]12	Human cytomegalovirus	–	HFF, AD169	–	relative to: CC50 over EC50	selectivity index	172
C=CCc1ccc(OCC(=C)C)c(OC)c1	Spodoptera frugiperda	–	larvae	100 µg/mL	relative to: untreated control	antifeedant index	41.1%
CN[C@@H]1[C@H](O)[C@H](NC)[C@H]2O[C@]3(O)[C@H](O[C@@H]2[C@H]1O)O[C@H](C)C[C@@]3(O)CNCc1ccc(F)cc1	Streptococcus pneumoniae	–	D39x, mice, pneumonia model	2.5 or 5 mg/kg, 48 h post infection	–	bacterial titre reduction	> 3 log units
CCC1(O)C([N+](=O)[O-])=NNc2nc(C(F)(F)F)nn21 (centres unmarked)	coxsackievirus B3	–	Vero, Nancy	–	relative to: CC50 over IC50	selectivity index	3
CC(=O)Nc1cccc(CNC(=O)c2cnc3ccccc3c2C(F)(F)F)c1	Drosophila melanogaster	–	APP Alzheimer model adult flies	oral in food, 100 µM, dosed from embryogenesis	–	median survival	30 days
CC[C@H](C)[C@H](NC(=O)[C@H](CCCCN)NC(=O)[C@H](CCCCN)NC(=O)[C@H](CC(C)C)NC(=O)[C@H](CCCCN)NC(=O)[C@H](CCC(=O)O)NC(=O)[C@H](CCCCN)NC(=O)[C@@H](NC(=O)[C@H](CCCCN)NC(=O)[C@H](CC(N)=O)NC(=O)[C@H](CCCNC(=N)N)NC(=O)[C@H](Cc1ccccc1)NC(=O)[C@H](CCCCN)NC(=O)[C@H](CCCNC(=N)N)NC(=O)[C@H](CC(C)C)NC(=O)[C@H](CCCNC(=N)N)NC(=O)[C@H](CCCCN)NC(=O)[C@H](CCCNC(=N)N)NC(=O)[C@H](CC(C)C)NC(=O)CN)[C@@H](C)CC)C(=O)NCC(=O)N[C@@H](CCC(N)=O)C(=O)N[C@@H](CCCCN)C(=O)N[C@H](C(=O)N[C@@H](CCC(N)=O)C(=O)NCC(=O)N[C@@H](Cc1ccccc1)C(=O)N[C@H](C(=O)N1CCC[C@H]1C(=O)N[C@@H](CCCCN)C(=O)N[C@@H](CC(C)C)C(=O)N[C@@H](C)C(=O)N1CCC[C@H]1C(=O)N[C@@H](CCCNC(=N)N)C(=O)N[C@H](C(=O)N[C@@H](CC(=O)O)C(=O)N[C@@H](Cc1ccc(O)cc1)C(=O)O)[C@@H](C)O)C(C)C)[C@@H](C)CC	Staphylococcus	inhibition zone	methicillin-resistant coagulase-negative P1369	–	–	lethal concentration	1.57 µM
CC[C@H](C)[C@H](NC(=O)[C@H](CCC(N)=O)NC(=O)CNC(=O)[C@H](C)NC(=O)[C@@H](NC(=O)[C@H](CC(N)=O)NC(=O)[C@H](CCCNC(=N)N)NC(=O)[C@H](CC(C)C)NC(=O)[C@H](C)NC(=O)[C@H](CCC(N)=O)NC(=O)[C@H](CCCCN)NC(=O)CNC(=O)[C@H](C)NC(=O)[C@H](CCCNC(=N)N)NC(=O)[C@H](C)NC(=O)[C@H](CCCCN)NC(=O)[C@H](C)NC(=O)CNC(=O)[C@H](CC(C)C)NC(=O)[C@H](CC(C)C)NC(=O)[C@H](CCCNC(=N)N)NC(=O)[C@H](CO)NC(=O)[C@H](CC(C)C)NC(=O)[C@H](CC(C)C)NC(=O)CN)[C@@H](C)O)C(=O)N[C@@H](CCCNC(=N)N)C(=O)N[C@@H](CCCNC(=N)N)C(=O)NCC(=O)N[C@@H](CC(C)C)C(=O)N[C@@H](CC(C)C)C(=O)NCC(=O)N[C@@H](C)C(=O)N[C@@H](CCCNC(=N)N)C(=O)N[C@@H](C)C(=O)N[C@@H](C)C(=O)N1CCC[C@H]1C(=O)O	Gram-negative bacteria	MIC	–	concentration not given	–	antibacterial activity	active
C=CCc1ccc(OCC=C(C)C)c(OC)c1	Spodoptera frugiperda	–	larvae	25 µg/mL	relative to: untreated control	antifeedant index	15.4%
CC[C@H](C)[C@H](NC(=O)[C@H](CCCCN)NC(=O)[C@H](CCCCN)NC(=O)[C@H](CC(C)C)NC(=O)[C@H](CCCCN)NC(=O)[C@H](CCC(=O)O)NC(=O)[C@H](CCCCN)NC(=O)[C@@H](NC(=O)[C@H](CCCCN)NC(=O)[C@H](CC(N)=O)NC(=O)[C@H](CCCNC(=N)N)NC(=O)[C@H](Cc1ccccc1)NC(=O)[C@H](CCCCN)NC(=O)[C@H](CCCNC(=N)N)NC(=O)[C@H](CC(C)C)NC(=O)[C@H](CCCNC(=N)N)NC(=O)[C@H](CCCCN)NC(=O)[C@H](CCCNC(=N)N)NC(=O)[C@@H](N)CC(C)C)[C@@H](C)CC)C(=O)NCC(=O)N[C@@H](CCC(N)=O)C(=O)N[C@@H](CCCCN)C(=O)N[C@H](C(=O)N[C@@H](CCC(N)=O)C(=O)NCC(=O)N[C@@H](Cc1ccccc1)C(=O)N[C@H](C(=O)N1CCC[C@H]1C(=O)N[C@@H](CCCCN)C(=O)N[C@@H](CC(C)C)C(=O)O)C(C)C)[C@@H](C)CC	Staphylococcus warneri	inhibition zone	ATCC 1.2824	LB agar, overnight	–	lethal concentration	0.78 µM
C=C(C)[C@@H]1CCC=C2CC[C@]3(C)[C@H](CC[C@@H]4[C@@]5(C)CCCNC(C)(C)[C@@H]5CC[C@]43C)[C@H]21	Human alphaherpesvirus 1	–	HFF, E-377	–	relative to: CC50 over EC50	selectivity index	< 2
C=CCc1ccc(OCc2ccccc2)c(OC)c1	Spodoptera frugiperda	insecticidal activity	larvae	topical	–	LD50	900 mg/kg
CC(=O)OC1C(C)C(OC2CC3OCOC3C(C)O2)C=COC2(C)Oc3c(C)c(O)c4c(c3C2=O)C(=O)C=C(NC(=O)C(C)=CC=CC(C(C)OC(=O)C(C)(C)CC(=O)O)C(O)C(C)C(O)C1C)C4=O (centres unmarked)	Providencia rettgeri	–	NCTC 7475	concentration not given	–	antibacterial activity	active
O=C(Cn1ccc(=O)c2ccccc21)N/N=C/c1cc(Br)c(O)c(Br)c1	Bipolaris maydis	microbial growth	–	50 µg/mL	–	inhibition	17.8%
CC(=O)O[C@@H]1C[C@@H](C)O[C@H]2O[C@@H]3C[C@@H]4CC[C@@H]5[C@H](CC[C@]6(C)[C@@H](C7=CC(=O)OC7)CC[C@]56O)[C@@]4(C)C[C@H]3O[C@]21O	Schistosoma mansoni	–	mouse, chronic infection	oral, 10 mg/kg single dose, total	–	worm number	14 ± 2.8
COc1ccc(-n2c(SCCCN3CCOCC3)nnc2[C@H](Cc2ccccc2)NC(=O)Cc2c(C)[nH]c3ccccc23)cc1	HIV-1 NL4-3	single-round infection	–	5 µM, early stage	relative to: untreated	infection	0.09 ± 0.01%
C/C=C/c1ccc(OCc2ccccc2)c(OC)c1	Spodoptera frugiperda	–	larvae	1000 µg/mL	relative to: untreated control	antifeedant index	35.6%
CCCCCCCCCCCCCC(=O)N[C@@H]1CCNC(=O)[C@H](CC(=O)O)NC(=O)[C@H](C(C)C)NC(=O)[C@@H](Cc2ccc(O)cc2)NC(=O)[C@H](CCN)NC(=O)[C@H](CC(C)C)NC(=O)[C@@H](Cc2ccccc2)NC(=O)[C@H](CCN)NC(=O)[C@H](CC(C)C)NC(=O)[C@H](CCN)NC(=O)[C@H]([C@@H](C)O)NC1=O	ESKAPE pathogens	–	–	concentration not given	relative to: MIC with serum over without	MIC fold change with serum	2 fold
CCC1c2cc(OC)c(O)cc2C(c2ccc(O)c(OC)c2)C1C (centres unmarked)	Spodoptera frugiperda	–	larvae	100 µg/mL	relative to: untreated control	antifeedant index	11.6%
O=C(Nc1ccccc1Nc1ccccc1)c1cccnc1Cl	Botrytis cinerea	microbial growth	–	50 µg/mL	–	inhibition	32.4%
O=C1/C(=N\NC(=S)NN=Cc2cccs2)c2ccccc2N1Cc1ccccc1	herpes simplex virus 1	viral cytopathogenicity	HEL, KOS	–	–	EC50	> 20 µM
CC(=O)c1c(O)c(C)c(O)c2c1OC1=CC(=O)/C3=C(/C)N[C@H](C(=O)O)CC1=CC=CC=C[C@@]2(C)C3=O	Candida tropicalis	broth microdilution	ATCC 750 fluconazole and amphotericin B resistant	24 and 48 h	–	MIC99	0.4 µM (≈ 0.197 µg/mL)
CC(C)C[C@@H]1NC(=O)[C@H](CCCCN)NC(=O)[C@H](C(C)C)NC(=O)[C@@H]2CCCN2C(=O)[C@@H](Cc2ccc(O)cc2)NC(=O)[C@H](CC(C)C)NC(=O)[C@H](CCCCN)NC(=O)[C@H](C(C)C)NC(=O)[C@H](CCCCN)NC(=O)[C@@H]2CCCN2C(=O)[C@@H](Cc2ccc(O)cc2)NC1=O	Gram-negative bacteria	–	–	24 h, 7 strains	–	MIC geometric mean	70.7 µg/mL (≈ 53.2 µM)

Repeated from above:
SMILES	organism	assay	test system	conditions	scale	endpoint	value
CN[C@@H]1[C@H](O)[C@H](NC)[C@H]2O[C@]3(O)[C@H](O[C@@H]2[C@H]1O)O[C@H](C)C[C@@]3(O)CNCc1ccc(F)cc1	Streptococcus pneumoniae	–	D39x, mice, pneumonia model	2.5 or 5 mg/kg, 48 h post infection	–	bacterial titre reduction	> 3 log units
CC[C@H](C)[C@H](NC(=O)[C@H](CCC(N)=O)NC(=O)CNC(=O)[C@H](C)NC(=O)[C@@H](NC(=O)[C@H](CC(N)=O)NC(=O)[C@H](CCCNC(=N)N)NC(=O)[C@H](CC(C)C)NC(=O)[C@H](C)NC(=O)[C@H](CCC(N)=O)NC(=O)[C@H](CCCCN)NC(=O)CNC(=O)[C@H](C)NC(=O)[C@H](CCCNC(=N)N)NC(=O)[C@H](C)NC(=O)[C@H](CCCCN)NC(=O)[C@H](C)NC(=O)CNC(=O)[C@H](CC(C)C)NC(=O)[C@H](CC(C)C)NC(=O)[C@H](CCCNC(=N)N)NC(=O)[C@H](CO)NC(=O)[C@H](CC(C)C)NC(=O)[C@H](CC(C)C)NC(=O)CN)[C@@H](C)O)C(=O)N[C@@H](CCCNC(=N)N)C(=O)N[C@@H](CCCNC(=N)N)C(=O)NCC(=O)N[C@@H](CC(C)C)C(=O)N[C@@H](CC(C)C)C(=O)NCC(=O)N[C@@H](C)C(=O)N[C@@H](CCCNC(=N)N)C(=O)N[C@@H](C)C(=O)N[C@@H](C)C(=O)N1CCC[C@H]1C(=O)O	Gram-negative bacteria	MIC	–	concentration not given	–	antibacterial activity	active
